Assay results collected from several papers.
Compare with care: the assays were run in different laboratories. Values joined by “and” are separate records of one study, mostly repeats; a detail may differ. ± marks the error that the study gave.
USP5: Ubiquitin carboxyl-terminal hydrolase 5 (USP5, Homo sapiens, UniProt P45974)
AR: Androgen receptor (AR, Homo sapiens, UniProt P10275)
CASP4: Caspase-4 (CASP4, Homo sapiens, UniProt P49662)

O=C(O)C1CC1C(=O)c1ccc(Cl)c(Cl)c1 (stereo not shown)
NADPH consumption rate (Kynurenine 3-monooxygenase, residues 1-394 (Saccharomyces cerevisiae, UniProt P38169); substrate; saturating): 0.12 µM/min

CC1=NN(c2ccc(N)cc2)C(=O)C1
inhibition (USP5; enzyme activity, inhibitor; 17 µM): 97%

CC(=O)N[C@@H](CCCNC(=N)N)C(=O)N[C@H](C(=O)N[C@@H](CCCCN)C(=O)N[C@@H](CO)C(=O)N[C@@H](CCCNC(=N)N)C(=O)N[C@H](C(=O)N[C@@H](Cc1c[nH]c2ccccc12)C(=O)N[C@@H](C)C(=O)N[C@@H](Cc1ccccc1)C(N)=O)[C@@H](C)OP(=O)(O)O)[C@@H](C)O
kon (14-3-3 protein epsilon (Homo sapiens, UniProt P62258); binding, SPR): 2.21e+06 M⁻¹ s⁻¹

COc1ncc2nc(C)n(Cc3ncc(S(N)(=O)=O)cc3F)c2c1-c1ccccc1
activation (AR; agonist, cell-based; 10 µM): 1.47%

CC1=C[C@@H](O/C=C2/C(=O)O[C@H]3c4ccccc4C[C@@H]23)OC1=O
thermal shift (D14 (Arabidopsis thaliana, UniProt Q9SQR3); protein stability, outcome no effect, differential scanning fluorimetry): no effect

CC(=O)N[C@@H](Cc1c[nH]c2ccccc12)C(=O)N[C@@H](CCC(=O)O)C(=O)N[C@@H](Cc1c[nH]cn1)C(=O)N[C@@H](CC(=O)O)C(=O)COC(=O)c1c(C)cccc1C
kinact/KI (CASP4; enzyme activity, inhibitor): 51800 M⁻¹ s⁻¹

C=CC(=O)N1[C@H](c2ccc3c(c2)OCO3)c2[nH]c3ccccc3c2C[C@H]1C(=O)N1CCOCC1
apparent affinity (Hepatocyte nuclear factor 3-alpha (FOXA1, Homo sapiens, UniProt P55317); DNA binding, NanoBRET; 20 µM, 3 h, added: noncanonical DNA sequences): increased

O=C1c2sc(-c3ccc(N4CCC(F)C4)nc3F)nc2CCN1c1cccnc1 (stereo not shown)
inhibition (AGTR2 (Homo sapiens, UniProt P50052); ligand displacement, radioligand; 1 µM): 3%

Cc1cc(C)cc(COc2cc3c(cc2OCc2cc(C)cc(C)c2)C2CC(O)(Cc4cn(CCOCCOCCNC(=O)CCCCC5SCC6NC(=O)NC65)nn4)CC(C)N2CC3)c1 (stereo not shown)
SILAC ratio (SCARB2 (Homo sapiens, UniProt Q14108); biotinylated probe pull-down; 10 µM probe; reference: heavy over light): 1.81

CC(=O)N[C@@H](CCCCN)C(=O)N[C@H](C(=O)N[C@@H](Cc1ccc(O)cc1)C(=O)N[C@@H](Cc1ccc(O)cc1)C(=O)N[C@@H](CCCNC(=N)N)C(=O)N[C@@H](Cc1ccc(O)cc1)C(=O)N[C@@H](CC(N)=O)C(=O)NCC(=O)N[C@@H](CCCCN)C(=O)N[C@H](C(=O)N[C@@H](Cc1c[nH]c2ccccc12)C(=O)N[C@@H](Cc1c[nH]c2ccccc12)C(=O)N[C@@H](CCCNC(=N)N)C(=O)O)C(C)C)C(C)C
random coil content (Insulin (INS, Bos taurus, UniProt P01317); circular dichroism; insulin-peptide complex; concentration not given, 0 min, 62 °C, before heat incubation, added: insulin 350 µM): 33%

[3H]C([3H])([3H])OC1(C2=NCCN2)COc2ccccc2O1 (stereo not shown)
Bmax (Alpha-2C adrenergic receptor, Δ5-15 deletion (Mus musculus, UniProt Q01337); radioligand binding; HEK293 membranes; α2c(Δ5–15)-AR mutant): 2.83 ± 0.29 pmol/mg protein

Nc1nc(NCc2ccc(Cl)cc2)nn1S(=O)(=O)c1ccc2c(c1)CCO2
probe labeling increase (Lysophospholipase-like protein 1 (Mus musculus, UniProt Q3UFF7); enzyme activity, activator, gel-based ABPP; purified protein; concentration not given, added: FP-rhodamine; reference: DMSO): 1 fold

CC(=O)N[C@H](C(=O)N[C@@H](CCC(N)=O)C(=O)N[C@@H](CO)C(=O)N[C@@H](CC(=O)O)C(=O)COC(=O)c1c(C)cccc1C)C(C)(C)C
kinact/KI (Caspase-9 (CASP9, Homo sapiens, UniProt P55211); enzyme activity, inhibitor): 54700 M⁻¹ s⁻¹

CC(C=CC=C(C)C=CC1=C(C)CCCC1(C)C)=CC=O
plasma membrane localization (Rhodopsin (RHO, Homo sapiens, UniProt P08100, P23H); immunostaining, item: opsin; COS-7 transfected; 1.00 µM, unit not given; reference: surface over total stained cells): 0.05

CC[C@H](C)[C@@H]1NC(=O)[C@H](Cc2ccccc2)NC(=O)[C@H](CCC(=O)O)NC(=O)[C@H](CCCNC(=N)N)NC(=O)CNC(=O)[C@@H](NC(=O)[C@H](CC(C)C)NC(=O)[C@H](CCCNC(=N)N)NC(=O)[C@@H](NC(=O)CNC(=O)[C@H](Cc2ccc(O)cc2)NC(=O)[C@@H]2CCCN2C(=O)[C@H](C)NC(=O)[C@H](C)NC(=O)[C@@H](N)CCCNC(=N)N)C(C)C)CSSC[C@@H]2NC(=O)[C@@H](NC(=O)[C@H](CO)NC(=O)[C@H](CO)NC(=O)[C@H](CO)NC(=O)[C@H](CC(C)C)NC(=O)CNC(=O)[C@H](C)NC(=O)[C@H](CC(C)C)NC(=O)[C@@H](NC(=O)[C@@H](N)CC(=O)O)C(C)C)CSSC[C@H](NC(=O)CNC(=O)[C@H](Cc3c[nH]c4ccccc34)NC(=O)[C@H](CCCCN)NC2=O)C(=O)N[C@@H](CO)C(=O)N[C@@H](CCCCN)C(=O)N[C@@H](CO)C(=O)N[C@@H](CCC(=O)O)C(=O)N[C@@H]([C@@H](C)CC)C(=O)N[C@@H](CO)C(=O)N[C@@H](CO)C(=O)N[C@@H](CC(C)C)C(=O)N[C@H](C(=O)O)CSSC[C@@H](C(=O)NCC(=O)NCC(=O)N[C@@H](CO)C(=O)N[C@@H](CCCNC(=N)N)C(=O)N[C@@H](Cc2c[nH]c3ccccc23)C(=O)O)NC(=O)[C@H]([C@@H](C)O)NC(=O)[C@H](Cc2ccccc2)NC(=O)[C@H]([C@@H](C)CC)NC(=O)[C@H](C(C)C)NC(=O)[C@H](C)NC(=O)[C@H](CCCNC(=N)N)NC1=O
ΔpEC50 (RXFP4 (Homo sapiens, UniProt Q8TDU9, R208A); R208A mutant; reference: wild type): inactive

CC[C@H](C)[C@H](NC(=O)[C@H](Cc1ccccc1)NC(=O)[C@H](CCC(=O)O)NC(=O)[C@H](CCCCN)NC(=O)[C@H](C)NC(=O)[C@H](C)NC(=O)[C@H](CCC(N)=O)NC(=O)CNC(=O)[C@H](CCC(=O)O)NC(=O)[C@H](CC(C)C)NC(=O)[C@H](Cc1ccc(O)cc1)NC(=O)[C@H](CO)NC(=O)[C@H](CO)NC(=O)C(C)(C)NC(=O)[C@H](CC(=O)O)NC(=O)[C@H](CO)NC(=O)[C@@H](NC(=O)[C@H](Cc1ccccc1)NC(=O)[C@@H](NC(=O)CNC(=O)[C@H](CCC(=O)O)NC(=O)[C@H](C)NC(=O)[C@@H](N)Cc1c[nH]cn1)[C@@H](C)O)[C@@H](C)O)C(=O)N[C@@H](C)C(=O)N[C@@H](Cc1c[nH]c2ccccc12)C(=O)N[C@@H](CC(C)C)C(=O)N[C@H](C(=O)N[C@@H](CCCCN)C(=O)NCC(=O)N[C@@H](CCCNC(=N)N)C(N)=O)C(C)C
efficacy (GLP1R (Homo sapiens, UniProt P43220); cAMP production, agonist, GloSensor luminescence; HEK293; 15 min; reference: GLP-1): 102 ± 2%

CC(C)(C)c1ccc(NC(=O)c2cnn(-c3ccc([N+](=O)[O-])cc3)c2C(F)(F)F)cc1
selectivity ratio (PTGS2 (Homo sapiens, UniProt P35354); enzyme activity, inhibitor; reference: COX-1 IC50 over COX-2 IC50): 0.73

N#CN1CC[C@H](C(=O)Nc2nc3c(s2)CN(C(=O)Cn2cc(CNC(=O)CCCC[C@@H]4SC[C@@H]5NC(=O)N[C@@H]54)nn2)CC3)C1
iBAQ abundance (Tubulin alpha-1B chain (Homo sapiens, UniProt P68363); probe binding, affinity probe, neutravidin pull-down LC-MS/MS; HEK293T, cell lysate; 5 µM, 1 h, single replicate, unit not given; higher = more pulled down): 2.9e+08 and 3.31e+08 and 6.59e+08

CC(=O)N1C[C@H](O)C[C@H]1C(=O)N[C@@H](CC(C)C)C(=O)N[C@@H](C)C(=O)N[C@@H](CC(=O)O)C(=O)COC(=O)c1c(C)cccc1C
kinact/KI (CASP4; enzyme activity, inhibitor): 11200 M⁻¹ s⁻¹

CC(C)CCN1COc2ccc3c4c(oc3c2C1)C(=O)c1ccccc1C4=O
inhibition (USP5; enzyme activity, inhibitor; 17 µM): 19%

CC(=O)N[C@@H](CC(=O)O)C(=O)N[C@@H](CCC(=O)O)C(=O)N[C@@H](CC(C)C)C(=O)N[C@@H](CC(=O)O)C(=O)COC(=O)c1c(C)cccc1C
kinact/KI (CASP4; enzyme activity, inhibitor): 32800 M⁻¹ s⁻¹

Cc1ccc(-c2c(/C=C(\C#N)C(=O)NC(C)C)n(CCCO)c3ncnc(N)c23)cc1
remaining binding (EGFR (Homo sapiens, UniProt P00533, G719C); cell-free assay, competition with immobilised ligand; 1 µM): 100%

CC1CCCc2c(N)nc(N)nc21 (stereo not shown)
major state population (folA (Escherichia coli, UniProt P0ABQ4); concentration not given, ternary complex with NADPH): 97.5 ± 0.2%

CCCCCC(O)/C=C/C=O (stereo not shown)
probe labelling ratio (Heat shock 70 kDa protein 4 (Homo sapiens, UniProt P34932); acylphosphate-ATP probe SILAC-ABPP, item: HSPA4; ZAK-transfected HEK293T; 100 µM, added: acylphosphate-ATP probe; reference: DMSO over compound-treated): 0.62

CCN(CC)C(CO)c1cccc2c(C)c(C)oc12 (stereo not shown)
fold change (LPAR1 (Homo sapiens, UniProt Q92633, W271A); G-protein dissociation, agonist, NanoBiT; HEK-293T; 10 pM, W271A mutant; reference: baseline luminescence): 1.05 and 1.01 and 1 and 0.972

CC(=O)N[C@@H](CC(=O)O)C(=O)N[C@@H](CCCC(=O)O)C(=O)N1[C@H](C(=O)N[C@@H](CC(=O)O)C(=O)COC(=O)c2c(C)cccc2C)C[C@@H]2CCCC[C@@H]21
kinact/KI (CASP4; enzyme activity, inhibitor): 23500 M⁻¹ s⁻¹

CCCN(CCCC[C@H](NC(=O)[C@H](CCCN1CCOCC1)NC(=O)[C@@H](NC(=O)[C@H](Cc1ccccc1)NC(=O)c1ccc(C(C)(C)C)cc1)C(C)C)C(=O)N[C@@H](CO)C(N)=O)C1CC2CCC1C2 (stereo partly shown)
selectivity ratio (Chromobox protein homolog 8 (Homo sapiens, UniProt Q9HC52); TR-FRET displacement; reference: IC50 CBX7 over IC50 CBX8): 26

CC1(C)NC(=O)N(c2ccc(F)c(C(C)(F)F)c2)C1=O
transcriptional activity (AR; reporter gene; LAPC4; up to 100 µM, added: DHT): no effect
